# Measurements from different studies.
# Numbered parts are unrelated; each lists some results of a single study. Positions count from the first letter of the parent shown.

# Set 1 — method: RNA Bind-n-Seq; form: RNA; sample: in vitro; tested at: 200 nM; notes: whole 134-nt RNA, ends assumed; added: 150 mM KCl; baseline: input library; direction: higher = stronger binding
# Target: Fragile X messenger ribonucleoprotein 1, C-terminal low-complexity region (Fmr1, Mus musculus, UniProt P35922)
# All sequences stand within: GGGAGUUCUACAGUCCGACGAUC … UGGAAUUCUCGGGUGUCAAGG
Oligonucleotide,log2 enrichment
ACAGAGGGUUUGGUGGACGUUAUUCUCUAUCAUCAACCCGAUGACAAAAAGAAGAAUCGGGGGUUCUGCUUCCUUGAAUAUGAGGAUCAC,-1.19
CACAGACAACACGCACCCACACAGACACAGAGGGAAGGGGUUGGGAUGGGGACGGGGUGCACAGCAGGGCGGGGUAGGACCCCAGCCCCU,1.23
UGGCCCUGGUGGCAUGCGGGGAGGAAGAGGUGGCCUCAUGGAUCGUGGUGGUCCCGGUGGAAUGUUCAGAGGUGGCCGUGGUGGAGACCG,-0.0919
GCAGGAAGUAAAAACAAAUGGAAAUGCUUCGGAUAGUGGCAGGGGUGGGGGUUGCUAAGGAAAGGGUGGGAUGGGAGUCGGUAAAGAGUU,0.283
CACAGACAACACGCACCCACACAGACACAGAGGGAAGGGGUUGGGAUGGGGACAGGGUGCACAGCAGGCCGGGGUAGGACCCCAGCCCCU,1.41
UAACUUUAGAGGAGGAUCUGAUGGAUAUGGCAGUGGACGUGGAUUUGGGGAUGGCUAUAAUGGGUAUGGAAGAGGACCUGGAGGUGGCAA,0.184
UCCUGUGCUACACAUCGUAUGUACCGAAUCGGGGCCCCCCGGGCCCCCCGGGCCCCCCGGAAAGUAUUAUGUUACGCCGUUCGGAUCUGC,-0.239
UGCUGGCAGCCAAGCAGCAGCAGGAGAUGCUGGCAGCCAAGCGGCAGCAGGAGCUGGAGCAGCAGCGGCAGCGGGAGCAGCAGCGGCAGG,-0.483
AAGUCCUGUGCUACACAUCGUAUGUACCGAAUCGGGAAAAAGGGAAAAAGGGUGGGAAAGUAUUAUGUUACGCCGUUCGGAUCUGCACUU,0.665
GUCCUGUGCUACACAUCGUAUGUACCGAAUCGGGGUUUUUUUGGGGUUUGGGGUGGGGAAAGUAUUAUGUUACGCCGUUCGGAUCUGCAC,0.524
AGCCGAGCGGGAACGGAACCGACAGCUGGAGCGAGAGAAACGUCGGGAGCACAGUCGGGAGAGGGACAGGGAGAGAGAGAGAGAAAGGGA,0.0573
CUGUGCUACACAUCGUAUGUACCGAAUCGGUUUUUUUGGGGUUUUUUUGGGGUUUUUUUGGAAAGUAUUAUGUUACGCCGUUCGGAUCUG,-0.784
GCAGGAAGUAAAAACAAAUGGAAAUGCUUCGGAUAGUGGCAGGGGUGGGGGUUGGUAAGGAAAGGGUGGGAUGGGAGUGGGUAAAGAGUU,0.17
UUUCUCCACAGGAGCCCCGCAAGUGAGCCAGCCACUGCGAGAGCAGAGUGAGGAUAUACCUGGAGCCAUUUCCUCUGCCCUGGCAGCCAU,0.484

# Set 2 — method: universal PBM; form: double-stranded DNA, one strand shown; sample: in vitro; tested at: 600 nM; direction: higher = stronger binding
# Target: Sal-like protein 4, full length isoform A (SALL4, Homo sapiens, UniProt Q9UJQ4, residues 1-1053)
# Chain of UniProt Q9UJQ4 (whole entry, looked up): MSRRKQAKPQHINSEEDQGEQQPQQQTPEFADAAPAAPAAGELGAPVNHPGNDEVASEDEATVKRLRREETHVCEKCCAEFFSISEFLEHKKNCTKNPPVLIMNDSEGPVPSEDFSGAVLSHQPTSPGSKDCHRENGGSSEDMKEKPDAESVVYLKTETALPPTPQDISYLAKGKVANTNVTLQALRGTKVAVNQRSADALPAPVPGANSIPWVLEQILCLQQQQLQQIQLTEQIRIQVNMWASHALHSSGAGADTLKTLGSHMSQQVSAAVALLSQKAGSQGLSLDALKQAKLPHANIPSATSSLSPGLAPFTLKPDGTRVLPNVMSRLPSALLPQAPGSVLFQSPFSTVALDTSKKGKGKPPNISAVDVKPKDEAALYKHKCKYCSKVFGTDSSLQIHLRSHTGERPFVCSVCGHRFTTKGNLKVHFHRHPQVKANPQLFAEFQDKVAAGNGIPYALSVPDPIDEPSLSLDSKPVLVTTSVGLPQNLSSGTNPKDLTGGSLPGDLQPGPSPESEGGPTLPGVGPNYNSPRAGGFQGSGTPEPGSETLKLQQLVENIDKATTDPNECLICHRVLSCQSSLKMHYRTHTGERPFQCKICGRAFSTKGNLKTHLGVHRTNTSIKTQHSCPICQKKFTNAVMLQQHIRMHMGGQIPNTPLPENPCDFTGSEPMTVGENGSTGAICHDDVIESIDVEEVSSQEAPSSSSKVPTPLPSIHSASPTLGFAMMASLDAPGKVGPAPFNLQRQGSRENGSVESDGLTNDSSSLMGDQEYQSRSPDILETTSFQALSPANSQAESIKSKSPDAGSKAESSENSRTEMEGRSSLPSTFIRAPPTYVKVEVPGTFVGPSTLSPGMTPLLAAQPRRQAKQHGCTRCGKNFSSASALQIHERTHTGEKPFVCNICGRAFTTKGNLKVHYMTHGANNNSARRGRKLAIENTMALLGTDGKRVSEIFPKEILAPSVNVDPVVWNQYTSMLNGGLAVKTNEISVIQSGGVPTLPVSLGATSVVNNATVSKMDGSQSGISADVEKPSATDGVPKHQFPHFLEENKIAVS
# Notes: 8-mer, flanks averaged, mean of replicates
Oligonucleotide,E-score
CGCCTACG,-0.246
AGTCAGAG,-0.147
GCACTCGC,-0.282
CTCGAGGA,-0.18
TAGAGTCA,-0.106
ACATCGTA,0.0874
AATAGCCT,0.0983
GAAAACGA,-0.0163
TGCGTGAA,0.0529
AAAGCAGT,0.0963
ATAACCTG,0.163
ACGACGCA,-0.0364
TGTTTCAA,0.272
CTCGTGGA,-0.139
CCCGTTCG,-0.133
ATTTTCCA,0.294
ATGAGTTA,0.173
GCAGTTAA,0.105
ACGTCCAA,0.0201
CAATGGTA,0.183
GACGTACC,-0.137
AACTAAAG,0.258

# Set 3 — target: CCND2, cyclin fold, Cln2 fusion (human); method: yeast growth competition, sequencing; sample: yeast; notes: weak parent motif; baseline: not given; direction: higher = stronger binding
# Parent: RBL2 docking peptide (human); STTRRRLFVENDS
Change,normalised enrichment score
V9E,0.144
T2I,0.0467
N11D,0.53
N11E,-0.34
N11P,0.26
L7A,0.573
D12N,-0.0865
E10M,0.47
S1M,0.33
R4P,0.107
E10A,0.064
E10H,0.209
D12A,-0.191
S13R,0.376
R4A,0.555
T2V,0.402
L7F,0.298
T2G,0.65
F8Y,0.0506
L7W,-0.144
R4V,0.134
E10P,0.581
N11F,0.401
E10W,-0.00105
R4N,0.0818

# Set 4 — method: RNA Bind-n-Seq; form: RNA; sample: in vitro; tested at: 365 nM; baseline: no-protein control; direction: higher = stronger binding
# Target: RNA binding protein fox-1 homolog 2, RRM domain, GST-SBP tag (RBFOX2, Homo sapiens, UniProt O43251-10, residues 100-194)
# Notes: natural RNA segment, single round, ends assumed
# All sequences stand within: GGGAGUUCUACAGUCCGACGAUC … UGGAAUUCUCGGGUGCCAA
# Residues (chain): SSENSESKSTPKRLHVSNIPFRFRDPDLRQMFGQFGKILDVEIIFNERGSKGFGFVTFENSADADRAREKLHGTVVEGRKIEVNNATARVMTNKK
Oligonucleotide,RBNS enrichment (R)
CAGGCCUUAGGGACUCAUAAAGAUAUGAGUACAUUGCUUAUUGGAAACUUGUAGGUUCACAUAUUAUUUUGACUAAGGUAUAUGGAUUUCCCCCCACUUACAUAAGUAAA,0.458
UAGAAGUGCGUCCUGUUUUCGCCUUACUUUACUCAGAGCUAGUUAGUGCUUCCUUAGUUUCCUAGCAACUAGGUGUGCAAAUCAUGUGUUGCAGCUUUACGGUUUUUAAA,0.724
GCAGAAAUGGUUCUGCAAGAUGCUCAAAGGCAUGGAAGAAACAUAUUACUAUUUAUUGUUAAUAUCAUGGUCAUCUGAAGUUAAGUACUGGGAUAUAUUUUUCUAAUUUC,0.957
ACAGCACCUCAUGGGAUCAGAAAAGAGAAAGAUGUUGGCUCUUGUAAUAAAUGCUUUCUACCCUAUAGGUUCUAGGCUAGACAGAGUCGUCAUUUCUGUGUCCUCAAUUU,0.359
GGAUUAAUCCAGGCAAAAGAAGAGACUUUAUCAGAGAGUGGAGUGAAGCAUUGUGGGUACUACCCGUGUCCCAUGUUCACAGUAACAAAUUCACAUGCAGGAUUUACUUU,0.356
GUGAUUGACACCUGCUGCUUUUGAGGAGCUCGGCUGCAGUGAUCACUGGCGUGUGGCACUCUGGCUACAAACUGCUGACCCAGGGGUUCCAGACACUGCUCACUCACUGG,0.282
UACCAACAAAACUCCAGGUUGAGACUCUCUAGUCUUGCCAGGGCCCACUGAGAGCUCCCAGACUCAGUACAUCUCUCCCUCGUUUAAAACACCUUUUUCUAAACACUUUC,0.984
AAAGCUGCGGUAUUAUUGGUUGAGAGGCGUCUUCUCACCUCUGGCUGAGAGCACUGGUGGGUUUGCAGGAGGCUGGGUGCUUCAGCCUACCCUUCCCCUUCCCCUCCCUU,0.365
AUUAGGAGAUAUUAAAAGAUUGAUGUCUUAGAAGGACAGGGUUAAAACCUUCUGUAAUAUAUUUAAAUAUAUAUUUUUAAGAGAGAUGCUACAUUGCCAAUGAUUUUAUA,0.879
GGGCCACCAGCCUCCCCUUCUUGUGGUGAGACUGAAUUUUGGGCUCAGACACCAGCAACAGCCUCUUGGGAUGCCCUGAGUUGCUUCCCAUUUCCUCUUUCUAGCCGUCC,0.345
UAUGAUGCAUUUAUAAACUAACUGGAACUGAGAAAUUCUCAUGCCCACUAAAGGAAAAGCUAAUUCUAUUGCCCCAGGGUGCAUAUUUCUAUGCCUUAUUUGAGUUAUCA,0.483
UCCUCUGAACCAUGAUGCAGUAGGUAAGAAGUUAUUAUGCGUAUAUACAUAUAUACAUUCAUAUACGACAAAGUAGGAGCUGUCCCCUUAGGAUGCAUAGCUGCCCCUAG,0.378

# Set 5 — method: competition protein-binding microarray; form: double-stranded DNA, one strand shown; sample: in vitro; tested at: 2 µM; added: Pho4 competitor, 0.05 µM; direction: higher = stronger binding; all sequences stand within: … GTCTTGATTCGCTTGACGCTGCTG
# Target: Centromere-binding protein 1, full length, His-tagged (CBF1, Saccharomyces cerevisiae, UniProt P17106, residues 1-351)
# Chain of UniProt P17106 (whole entry, looked up): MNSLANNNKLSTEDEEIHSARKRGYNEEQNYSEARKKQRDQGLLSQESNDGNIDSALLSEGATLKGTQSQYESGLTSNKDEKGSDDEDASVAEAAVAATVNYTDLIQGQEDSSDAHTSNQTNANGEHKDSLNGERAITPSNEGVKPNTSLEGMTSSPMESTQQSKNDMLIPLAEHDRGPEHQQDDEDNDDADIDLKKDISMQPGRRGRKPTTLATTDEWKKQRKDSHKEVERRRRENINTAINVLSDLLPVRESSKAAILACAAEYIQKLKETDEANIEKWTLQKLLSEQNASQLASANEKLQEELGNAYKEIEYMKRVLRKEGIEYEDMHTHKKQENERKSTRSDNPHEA
# Notes: whole 60-bp probe, lowest competitor level
Oligonucleotide,fluorescence intensity [a.u.]
CTTCTGTAAATTTTTCACGTGCCCTGACGCGCCCCG,935
CATACCCAACCTTGGATCGTGGGTGAAGATATTTGT,76.5
CGTCCTAGTGATTTTCACGTGCATTCCATGAGGAAG,1320
AAAGCGGTAATTTGGTTTGTGGGTGCAGATATCTAT,94
ATCTAGCTCTGCACACATGTGACGGAACGAAGCATC,443
AAATCGGAGGTTTCACACGTAATTACATAAAGAAGA,69.5
GGTAAATCACCTATAGACGTGCGATGCAATAACCCT,62.2
CTTTCCCGATCTTGTCACCACACTTTAGCACATTTG,83.6
GGTGTCCATCCCCGTCACATGGTGCAGTACTTCCTT,626
TCGCGAGAATTTGGGCACATGTGTGCCGGAATGTAT,234
TTGCCGTGTGAAGGCAACGTGATGGCCGCTACACTA,211
CTGTTCCTAAGTTATTTCGTGGGACAAGCGGACATG,81.3
CTAGCGCCATTTCACCACATGCTTGAATAATACAGT,154
GCGCGAGAACATTACGACGCGCCTTCCCGTTAAATT,56.6
TGCGCAACAACTTGTCACCAAACTTTATGTCTAGAA,71.7
TATTGTTTTCGTTATCGCGTGGCAAGATATCTTGCG,119
CGTTGCCTTATCGTCCTCGTGTCCTGTCTTCGAGGT,109
CGTCCTAGTGATTGCGATGTGGGTGCCATGAGGAAG,93.4
AATGGGTATGGCAGCACCGTGATGGAACAACCATTT,75.8
GAGTCATAAGCATAACATGTGGTTCCAGAAGCACTT,140
TGAGTCTTTGGGTCCCACGTGCTTTCTAAAACTTCA,2180
CGGGGTTAAGTTTGGGAAGTGGGTGGCTTGCAGCAG,68.1
AAATTACTAAGTTGTGTCGTGGGTGACGCCGTATGA,73.8
CAAAAACTAAACTGGCACGCTAGAGAAAAGTAGTCA,78.3
CTAACGAAGGTTTGTCACTGTACTTACAAGCCAAGT,70.5

# Mixed results
Molecule,target,assay,test system,conditions,scale,measurement,value
"PhoQ, residues 284 288 289 292 302 303 TASMAF","PhoP, residues 12 14 15 18 19 QQAYL (Escherichia coli, UniProt P23836)","Sort-seq, refers to: YFP reporter",E. coli,"PhoQ-PhoP variant library, added: 10 µM Mg2+","baseline: high Mg2+ state, higher = stronger signaling",fold induction,21.7

# Excerpt of the above (set 5):
Oligonucleotide,fluorescence intensity [a.u.]
CGGGGTTAAGTTTGGGAAGTGGGTGGCTTGCAGCAG,68.1
CGTTGCCTTATCGTCCTCGTGTCCTGTCTTCGAGGT,109
AAATCGGAGGTTTCACACGTAATTACATAAAGAAGA,69.5
CTTTCCCGATCTTGTCACCACACTTTAGCACATTTG,83.6
TCGCGAGAATTTGGGCACATGTGTGCCGGAATGTAT,234
CTGTTCCTAAGTTATTTCGTGGGACAAGCGGACATG,81.3
CGTCCTAGTGATTGCGATGTGGGTGCCATGAGGAAG,93.4
GAGTCATAAGCATAACATGTGGTTCCAGAAGCACTT,140
CGTCCTAGTGATTTTCACGTGCATTCCATGAGGAAG,1320
TGCGCAACAACTTGTCACCAAACTTTATGTCTAGAA,71.7
CTTCTGTAAATTTTTCACGTGCCCTGACGCGCCCCG,935
TGAGTCTTTGGGTCCCACGTGCTTTCTAAAACTTCA,2180
GCGCGAGAACATTACGACGCGCCTTCCCGTTAAATT,56.6
CATACCCAACCTTGGATCGTGGGTGAAGATATTTGT,76.5
TATTGTTTTCGTTATCGCGTGGCAAGATATCTTGCG,119
CTAACGAAGGTTTGTCACTGTACTTACAAGCCAAGT,70.5
